Results collected from several papers.
Parts stem from different laboratories: compare values within a part only. Substitutions count along the parent as printed.

Set 1
Target: Histone acetyltransferase KAT6A, both winged helices, GST fusion (KAT6A, Homo sapiens, UniProt Q92794, residues 1-181)
Method: protein binding microarray
Form: double-stranded DNA, one strand shown
Sample: in vitro
Concentration: not given
Setting: 8-mer, flanks averaged, mean of 2 arrays, mostly near background
Relative to: not given
Reading: higher = stronger binding
Measurement: E-score
Target sequence (chain): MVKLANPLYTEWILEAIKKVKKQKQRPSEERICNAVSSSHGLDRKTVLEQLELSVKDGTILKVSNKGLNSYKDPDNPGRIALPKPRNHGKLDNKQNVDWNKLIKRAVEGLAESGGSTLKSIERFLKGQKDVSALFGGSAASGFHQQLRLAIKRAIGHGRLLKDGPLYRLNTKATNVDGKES
CTGCGTCA: 0.107
GGGGGTAA: -0.128
CTGTCAAC: -0.0887
ATAACTGC: -0.0806
CTTTATCA: -0.201
AGGGCGTC: 0.195
AGGGCTGC: -0.023
GCTCATAA: 0.00797
CGAGAGTA: -0.0112
ACTGGACT: -0.208
CCTGTGCG: 0.0909
CATTTCCA: -0.133
ACCAATCA: -0.234
CCGCGCCA: 0.295
ATTAATGC: 0.0274
AGCGTGCC: 0.113
CGTGGAAA: 0.138
CTTTTAAA: 0.0261
CCAGTGAG: -0.15
AAGCCCCG: 0.0998
CGGAAGTA: 0.147
CTCAACTC: -0.253
GACGGTAC: 0.227
TCCGAACA: 0.0743
GAAGTCGC: 0.169

Set 2
Target: Prothrombin, mature alpha-thrombin (F2, Homo sapiens, UniProt P00734)
Method: aptamer microarray, sandwich
Form: DNA with 2'F-ANA
Sample: in vitro
Concentration: 200 nM
Setting: whole 15-mer aptamer, many near background
Together with: Cy3 exosite-II aptamer, 400 nM
Reading: higher = stronger binding
Measurement: mean fluorescence intensity
Sequence: GGTTGGTGTGGTTGG
2'F-ANA at 1 2 6 8 9 12 15: 362 a.u.
2'F-ANA at 1 3 5 6 7 10 11 13 15: 52.1 a.u.
2'F-ANA at 2 4 8 9 13 14 15: 95.3 a.u.
2'F-ANA at 2 4 5 6 7 8 9 10 11 12: 137 a.u.
2'F-ANA at 1 3 4 5 7 9 10 14 15: 42.6 a.u.
2'F-ANA at 2 3 4 6 11 12 15: 651 a.u.
2'F-ANA at 3 4 5 11 13 14 15: 56.9 a.u.
2'F-ANA at 1 4 5 7 8 11 12 14: 56.3 a.u.
2'F-ANA at 3 8 9 11 13 15: 858 a.u.
2'F-ANA at 4 6 7 8 9 10 12 14 15: 61.4 a.u.
2'F-ANA at 1 4 5 6 8 14 15: 54.7 a.u.
2'F-ANA at 2 5 6 7 9 10 12 15: 55 a.u.
2'F-ANA at 3 5 7 9 12 14 15: 57.1 a.u.
2'F-ANA at 1 4 6 8 9 10 12 13 14: 71.9 a.u.
2'F-ANA at 1 3 4 9 10 12 13 15: 74.6 a.u.
2'F-ANA at 5 7 9 10 11 12 15: 76 a.u.
2'F-ANA at 4 5 7 8 13 14 15: 47.7 a.u.
2'F-ANA at 2 3 14 15: 490 a.u.
2'F-ANA at 2 3 5 6 7 8 11 13: 84.5 a.u.
2'F-ANA at 4 5 6 7 9 10 11 12 13 15: 45.4 a.u.

Set 3
Target: CCNB3, cyclin fold, Cln2 fusion (human)
Method: yeast growth competition, sequencing
Sample: yeast
Setting: weak parent motif
Relative to: not given
Reading: higher = stronger binding
Measurement: normalised enrichment score
Starting sequence: E2F1 docking peptide (human); PPVKRRLDLETDH
P2A: 0.25
D12Q: 0.547
P1N: 0.268
D12P: 1.23
L7A: -0.0419
L7C: 0.148
E10R: 0.0982
V3M: 0.0432
R5V: 0.194
R6L: 0.336
E10V: 0.42
D12H: 0.104
D8I: 0.454
T11F: 0.588
T11H: -0.0523
P1S: 0.416
K4F: 0.356
D8P: 0.134
L7Y: 0.116
L7T: 0.466
L7H: 0.00925
D8A: 0.287
P2W: 0.0616
T11C: -0.116

Set 4
Target: Interferon regulatory factor 5, full length, phosphomimetic (IRF5, Homo sapiens, UniProt Q13568-2, residues 1-514, S451D/S453D/S456D/S462D)
Method: protein-binding microarray
Form: double-stranded DNA, one strand shown
Sample: in vitro
Concentration: 940 nM top
Setting: 60-bp whole probe
Together with: salmon DNA 0.4 mg/ml
Relative to: random background probes
Reading: higher = stronger binding
Measurement: fitted relative affinity
All sequences stand within: GCCTAGCAC … GTCTTGATTCGCTTGACGCTGCTG
AGAGAATGTGGAGAAATAGGGTGCTAG: -0.0475 z-score
TTAGGTATCCTACTGCTTTAGTGCTAG: 0.127 z-score
GACGATATCGGGTAGCGAGACGTGCTA: -0.153 z-score
GACGGTTTGGGTTTCGGGACGTGCTAG: 3.77 z-score
AGCATCTTCAAGACTCATAATGTGCTA: 0.0107 z-score
TCAGTTTCCTCTTTCACACTGTGCTAG: 2.55 z-score
GTGTGTGTCTGATTATTTACGTGCTAG: 0.404 z-score
ATCTGCAGCTGACTACACACGTGCTAG: -0.292 z-score
GACGGTATCGGAATCGGGACGTGCTAG: 3.2 z-score
GACGGTTTCGGGACTGGGTACGTGCTA: 6.73 z-score
GACGGTTCCCTACTGCTGACGTGCTAG: 0.111 z-score
TTGGGTATCCTACTGCTTTAGTGCTAG: 0.012 z-score
TCATTTTTCCCTCTGGAAAAGTGCTAG: -0.0574 z-score
TCAACCATCCCTTATAAAACTGTGCTA: 0.893 z-score
GACCATATCAGTTTCGAGACGTGCTAG: 4.58 z-score
GACGGTTTCGACTATTGGGACGTGCTA: 7.53 z-score
TTAGATATCGGGTACCGATTAGTGCTA: 0.0952 z-score
GACGATTCAAGTTTCGAGACGTGCTAG: 3.13 z-score
TTAGGTATCGGACTGAGTTAGTGCTAG: 3.43 z-score
GACGGACTGGGCATCGGGACGTGCTAG: -0.79 z-score
TCAGATTTCCTTCACCCACTGTGCTAG: 0.96 z-score
TTAGGTTTCGACACGGGGTTAGTGCTA: 8.98 z-score

Set 5
Target: Sal-like protein 4, full length isoform B (SALL4, Homo sapiens, UniProt Q9UJQ4-2, residues 1-616)
Method: universal PBM
Form: double-stranded DNA, one strand shown
Sample: in vitro
Concentration: not given
Setting: 8-mer, flanks averaged, mean of replicates
Reading: higher = stronger binding
Measurement: E-score
Residues (chain): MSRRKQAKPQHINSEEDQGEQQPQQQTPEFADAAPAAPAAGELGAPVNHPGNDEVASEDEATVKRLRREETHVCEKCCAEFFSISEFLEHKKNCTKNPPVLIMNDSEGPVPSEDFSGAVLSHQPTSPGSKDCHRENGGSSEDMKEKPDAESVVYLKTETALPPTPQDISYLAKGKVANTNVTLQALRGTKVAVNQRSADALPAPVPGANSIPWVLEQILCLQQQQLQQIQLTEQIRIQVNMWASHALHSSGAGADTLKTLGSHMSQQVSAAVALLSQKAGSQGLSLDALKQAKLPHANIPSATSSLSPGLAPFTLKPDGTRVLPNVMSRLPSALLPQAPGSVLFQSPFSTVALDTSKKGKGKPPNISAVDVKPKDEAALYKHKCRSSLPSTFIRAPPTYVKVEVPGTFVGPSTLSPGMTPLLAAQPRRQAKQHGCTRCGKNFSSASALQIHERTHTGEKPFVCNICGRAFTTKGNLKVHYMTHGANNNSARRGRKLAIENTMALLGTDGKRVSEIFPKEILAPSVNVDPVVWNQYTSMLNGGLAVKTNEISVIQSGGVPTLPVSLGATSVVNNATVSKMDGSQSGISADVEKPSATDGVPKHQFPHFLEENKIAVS
CAAGGCTC: -0.321
AGACCGGC: -0.366
AACTGTCA: 0.104
ATCCGTCC: -0.156
AGTAGGAA: 0.0738
AGGCGAAT: 0.0289
CCCTATCG: -0.0888
ACCGAAAC: -0.137
GCGTGGTA: -0.0589
AGGCGTTG: -0.0653
CTCACGAG: -0.2
ATACAAGC: 0.102
CACAGCGG: -0.222
GGGAATGA: 0.0884
CACATCTC: -0.0317
CTCCCAGA: -0.108
CCTTTATC: 0.131
AGTGGCGG: -0.15
ACGTCTTG: 0.0215
ACACTACG: -0.0253
CCTGCTCG: -0.302
GCCATGAC: -0.0953
CAAATAAG: 0.0676
AGGGATCG: -0.147
CAGCTTGG: -0.158

Set 6
Target: RNA binding protein fox-1 homolog 2, RRM domain, GST-SBP tag (RBFOX2, Homo sapiens, UniProt O43251-10, residues 100-194)
Method: RNA Bind-n-Seq
Form: RNA
Sample: in vitro
Concentration: 365 nM
Setting: natural RNA segment, single round, ends assumed
Relative to: no-protein control
Reading: higher = stronger binding
Measurement: RBNS enrichment (R)
All sequences stand within: GGGAGUUCUACAGUCCGACGAUC … UGGAAUUCUCGGGUGCCAA
Target sequence (chain): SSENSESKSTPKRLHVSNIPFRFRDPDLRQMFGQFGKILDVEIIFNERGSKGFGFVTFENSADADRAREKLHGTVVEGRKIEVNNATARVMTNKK
CUGGGUAUGAAUUCCCUGACACACAUUCAUGUCAACAUAUGUAGCAAAUUUUGUGAAAACAUAACAAUUUGAAGCUUCUGUAAUUUUGAGCACUGCUCUAACAACAAGCA: 0.74
AGCUUUCUGGCUUUUCUGAGGGCAAGGGCAUGGUGCCCACCCCUCAAGUGUAAGGAACUGCGUUCCGCCCCUCAGGCCCCCAUGGGGGCAGGGAUCGGCUUGGAAAUCAA: 0.237
AGCUGCUGCAGGCAGGACUCCAGCGUCAGGAUGUUGCCACUUGGAGUAUGAACAAUGGGCACGGGGUUUUCAGCCACAGUUCCCUCGAGGCCAGUGUUCAGCAGGAUCAU: 0.643
AUUGUUUUUGCACCAGACGAACAGUGAGGAAAUUCGGAGCUAUACAUAUGUGCAGAAGGUUACUACCUAGGGUUUAUGCUUAAUUUUAAUUGGAGGAAAUGAAUGCUGAU: 2.08
AGGAAUAUGGCCGGACAGGAGACUUACUUGUGGAGAAGGGACAGACCAGGCCUUCCCUCUAGGGCUUCUGGCUACUUGCUGCAGUUCUUUGUCAGCGAGGCUCCCUGCCA: 0.432
UCCUUCCGACAGGAGCUGACUCAUGUCAGGAUGGCAGGCCUGGUAUCUUGCUCGGGCCCUAGCUGUUGGGGUUCUCAUGGGUUGCACUGACCAUACUGCUUACGUCUUAG: 0.492
GAGUGUGAAACAAGGCAAGUCUCAGACCAGCAAUAAAUUAUUCAGUUUGGCUAACCUUAUUUUGUGCUGUUAAUCUACCAAAGUGUUUUGUCUACCCCUUUAAUAAGUUG: 0.295
UUCUUGCAUUCUUUCUAAGCAGUCAGCAAGUAUUUAUUAAAUGCUUUAAGGAAAACAAUAAUAGAGUAAUUUUUGAGUUCGCCAAUUACAUCAAUUAAGAAAUUUCAGAA: 1.58
CCCUGGGCUUCGUGAAAUGGCACAGUCAUUGGUAAUCUUCAAAAAGCCAGAAGCCCAGGACCUCCUUUUUGCACCAGCCUAUUUGAUAGUCCUAUAUUUUUAAAGCACAC: 0.542
UAAAUAUUUAAGUCACAUACAUGGUAAAGAUCUAAGUUUCAUUUUCCACAUGGAUGACCAGGAACCUGGUCUUGUUGGAGCUGGCAUAGGAGGUUCUACUGUCUUGUCGU: 3.89
UGGGCAGCCACUCCCCGAGAUGUUGCCAUCAGUUUUCUGCAGUCCAAAGAGGGUAUGGUUAGGUACGGGUCUUCCUGCCUCAUUCCUCUUCCUCUUUGUGUAGGUUUCAG: 0.236
GUUUGUUUGGUUUUGGUUUCUUUUCUUGAAUGUGCUUUAGUAGCCAGAUCCUCCAAGGAAGGCAAAAGCCAGCCAGCCAGAGAGAGAGUAGCGAAGCGGGCAGGCUGCAG: 4.6

Excerpt of the above (set 3):
P2A: 0.25
D12Q: 0.547
P1N: 0.268
D12P: 1.23
L7A: -0.0419
L7C: 0.148
E10R: 0.0982
V3M: 0.0432
R5V: 0.194
R6L: 0.336
E10V: 0.42
D12H: 0.104
D8I: 0.454
T11F: 0.588
T11H: -0.0523
P1S: 0.416
K4F: 0.356
D8P: 0.134
